Measurements gathered from unrelated publications.
Protocols differ between the studies behind these lines. Values joined by “and” are separate records of one study, mostly repeats; a detail may differ.
Organism: Escherichia coli
B1: chain MTPELNWRHEFGEIRVTFSIFNRFWLNWMDRSDRIIMIAQMHYTVAVVGSEAGRSLFAPPAY

colistin
tetracycline MIC (checkerboard; tetracycline-resistant (pBR322); 0.0156 µM, added: tetracycline): 450 µM

gentamicin
viable count (time-kill; 1 x MIC, 30 min): 2.47 log CFU/mL

bacitracin
inhibition zone diameter (CGMCC 1.9; concentration not given, 18 h, 37 °C): 0 mm

polymyxin B
time to eradication (ATCC BAA-2452; 4 × MIC): 3 h

colistin
MIC (broth microdilution; clinical isolate RKI-No_593/16): ≤ 0.5 µg/mL

MTPELNWRHEFGEIR
fold change (bacterial growth; peptide, DH5α; concentration not given, 37 °C; reference: with over without arabinose induction): 18.9

colistin
bacterial load (ATCC 25922, female ICR mice, subcutaneous infection, infected skin; dose not given): 7.97 log CFU/g and 8.33 log CFU/g and 7.66 log CFU/g and 8.37 log CFU/g and 8.59 log CFU/g

colistin
MIC (broth microdilution; ATCC 25922; susceptible reference strain): 0.125 to 0.5 µg/mL

B1
log fold change (bacterial growth; DH5α; concentration not given; reference: with over without arabinose induction): 3.78

Triton X-100
FIC index (tetracycline-resistant; 20 µM, added: tetracycline): 1

MTPELNWRHEFGEIRVTFSI
log fold change (bacterial growth; peptide, DH5α; concentration not given; reference: with over without arabinose induction): 4.64

colistin
fold MIC shift (ATCC 25922; reference: 5% CO2 over ambient air): 2

Polymyxin B
MIC fold change (ATCC 25922; concentration not given, added: NaCl 150 mM; reference: no added salt): 2 fold

Polymyxin B
inhibition zone diameter (ATCC 25922; 62.5 µg per disc, 24 h, 37 °C): 18 mm
